Measurements gathered from unrelated publications.
Compare with care: the assays were run in different laboratories. Values joined by “and” are separate records of one study, mostly repeats; a detail may differ. Numbers after ± are the reported error.

Structure (SMILES) | target or system | assay | system | setting | scale | measurement | value
CC(C)C[C@@H](NC(=O)[C@@H](CCCNC(=N)N)NC(=O)[C@@H](Cc1c[nH]cn1)NC(=O)[C@@H](Cc1c[nH]c2ccccc12)NC(=O)[C@@H](Cc1c[nH]cn1)NC(=O)[C@@H](Cc1ccccc1)NC(=O)[C@H](NC(=O)[C@@H](Cc1ccc(O)cc1)NC(=O)CNC(=O)CNC(=O)CCOCCOCCOCCNC(=O)CN1CCN(CC(=O)O)CCN(CC(=O)O)CC1)[C@H](C)O)C(=O)N[C@H](CC(N)=O)C(=O)N1CCC[C@@H]1C(=O)O [gallium-68 labelled] |  |  | C57BL/6 mice, male | intravenous, 1.85 MBq, 120 min | baseline: tumour over blood | tissue ratio | 5.69 ± 1.27
CC(C)[C@@H]1NC(=O)CNC(=O)[C@H](CC(N)=O)NC(=O)[C@H](CCCNC(=N)N)NC(=O)[C@H](Cc2ccc(O)cc2)NC(=O)[C@H](C(C)C)NC(=O)[C@@H](NC(=O)[C@@H](NC(=O)[C@H](CC(N)=O)NC(=O)[C@H](Cc2c[nH]c3ccccc23)NC(=O)[C@H](C)NC(=O)[C@H](Cc2ccccc2)NC(=O)CNC(=O)[C@H](CCCCN)NC(=O)[C@H](Cc2ccccc2)NC(=O)[C@H](Cc2ccccc2)NC(=O)[C@H](CCCCN)NC(=O)OCC2c3ccccc3-c3ccccc32)C(C)C)CSSC[C@@H](C(=O)N[C@@H](Cc2c[nH]cn2)C(=O)N[C@@H](CCCNC(=N)N)C(=O)N[C@@H](CCCNC(=N)N)C(=O)N[C@@H](C)C(=O)N[C@@H](CC(N)=O)C(N)=O)NC(=O)[C@H](C(C)C)NC(=O)[C@H](CCCNC(=N)N)NC1=O |  |  | ICR mice, blood | intraperitoneal, 10 mg/kg, day 5 |  | mean corpuscular volume | 40.7 ± 0.49 fL
CCCCCCCCCCCCCCCC(=O)N[C@@H](CCC(=O)NCCOCCOCCC(=O)NCCOCCOCCC(=O)NCCCC[C@H](NC(=O)[C@H](CC(=O)O)NC(=O)[C@H](CC(C)C)NC(=O)[C@H](Cc1ccc(O)cc1)NC(=O)[C@H](CCCCN)NC(=O)[C@H](CO)NC(=O)[C@H](Cc1ccc(O)cc1)NC(=O)[C@H](CC(=O)O)NC(=O)[C@H](CO)NC(=O)[C@@H](NC(=O)[C@H](Cc1ccccc1)NC(=O)[C@@H](NC(=O)CNC(=O)[C@H](CCC(N)=O)NC(=O)[C@@H](CO)NC(=O)[C@@H](N)Cc1c[nH]cn1)[C@@H](C)O)[C@@H](C)O)C(=O)N[C@@H](CCCNC(=N)N)C(=O)N[C@@H](CCCNC(=N)N)C(=O)N[C@@H](C)C(=O)N[C@@H](CCC(N)=O)C(=O)N[C@@H](CC(=O)O)C(=O)N[C@@H](Cc1ccccc1)C(=O)N[C@H](C(=O)N[C@@H](CCC(N)=O)C(=O)N[C@@H](Cc1c[nH]c2ccccc12)C(=O)N[C@@H](CC(C)C)C(=O)N[C@@H](CC(C)C)C(=O)N[C@@H](CC(N)=O)C(=O)N[C@H](C(=O)NCC(=O)NCC(=O)N1CCC[C@H]1C(=O)N[C@@H](CO)C(=O)N[C@@H](CO)C(=O)NCC(=O)N[C@@H](C)C(=O)N1CCC[C@H]1C(=O)N1CCC[C@H]1C(=O)N1CCC[C@H]1C(=O)N[C@@H](CO)C(N)=O)[C@@H](C)O)C(C)C)C(=O)O |  |  | rhesus monkey, plasma | subcutaneous, 20 µg/kg, single dose |  | AUC(0-inf) | 83 ng·h/mL
O=c1c(-c2cnn(-c3ccccc3)c2)c(C(F)(F)F)oc2c(O)c(O)ccc12 |  |  | mouse | intraperitoneal, 100 mg/kg, 24 h, DMSO vehicle |  | trough concentration | 160 nM
O=C1NC2(CC2)COc2ncc(F)cc2[C@H]2COCCN2c2ccn3ncc1c3n2 |  |  | Sprague-Dawley rat, male, serum | oral, 2.5 mg/kg/day, 4 weeks daily, end of treatment |  | gamma-glutamyltransferase activity | 0.2 ± 0.1 U/L
C/C(=N\OCCCN1CCCCC1)c1ccc(C(F)(F)F)cc1 |  |  | C57BL/6 mouse, brain | oral, 10 mg/kg, 0.5 h |  | brain concentration | 8580 ± 1630 ng/g
CC(C)[C@@H]1NC(=O)[C@H](Cc2ccc(O)cc2)NC(=O)[C@H](Cc2ccccc2)NC(=O)[C@H]([C@@H](C)O)NC(=O)[C@@H](Cc2ccc(O)cc2)NC(=O)CSC[C@H](C(=O)NCCOCCOCCOCCOCCOCCOCCC(N)=O)NC(=O)[C@H](C)NC(=O)[C@H](CO)NC(=O)[C@@H]2CCC[C@@H]2NC(=O)[C@H](Cc2c[nH]cn2)NC(=O)[C@H](CCCNC(=N)N)NC(=O)[C@H](Cc2ccc(O)cc2)NC(=O)[C@H]([C@@H](C)O)NC(=O)[C@H](Cc2ccccc2)NC(=O)[C@H]([C@@H](C)O)NC(=O)[C@H](Cc2ccc(O)cc2)NC(=O)[C@H](Cc2ccccc2)NC1=O |  | HPLC | human serum | 10% serum, 37 °C |  | stability time | ≥ 24 h
Cc1ccc(OCCN(C)C)cc1C(=O)N[C@H](C)c1cc(-c2ccc(CNC3CCCC3)s2)nc2ccccc12 | Vero E6 |  |  | 15.62 µM |  | viability | 1.83% and -1.14%
CC(=O)c1c(C)c2cnc(Nc3ccc(N4CCNCC4)cn3)nc2n(C2CCCC2)c1=O |  |  | C57BL/6 mice, blood | 25 mg/kg, P25, dosed P10 to P24 |  | platelet count | 616 ± 76 10⁹/liter
CSCC[C@H](NC(=O)CNC(=O)[C@H](CCCCN)NC(=O)[C@H](CC(C)C)NC(=O)[C@@H]1CCCN1C(=O)[C@H](CO)NC(=O)[C@H](Cc1c[nH]cn1)NC(=O)[C@H](Cc1c[nH]c2ccccc12)NC(=O)[C@H](CCCNC(=N)N)NC(=O)[C@H](CC(C)C)NC(=O)[C@H](CCCNC(=N)N)NC(=O)[C@H](Cc1c[nH]c2ccccc12)NC(=O)[C@H](CS)NC(=O)CCCCCNC(=O)CN1CCN(CC(=O)O)CCN(CC(=O)O)CCN(CC(=O)O)CC1)C(=O)O [copper-64 labelled] |  |  | BALB/c nude mouse, Huh-7 tumour, brain | intravenous, 1.85 MBq, 18 h |  | tissue uptake | 0.24 %ID/g
CN1Cc2cc(Cl)ccc2-n2c(nnc2C2CCN(c3cccc([18F])n3)CC2)C1 |  | PET two-tissue compartment model | rhesus monkey, occipital cortex | intravenous, dose not given, 70 min scan, baseline scan |  | total volume of distribution | 0.93 ± 0.35 mL/cm3
Cc1ccc(N2CCN(C)[C@H](C)C2)cc1C(=O)N[C@H](C)c1cc(-c2cnn(C)c2)nc2ccccc12 | African green monkey cells |  |  | 15.62 µM |  | viability | 99.8%
CC[C@H](C)[C@H](NC(=O)[C@H](C)NC(=O)CNC(=O)[C@H](Cc1c[nH]cn1)NC(=O)[C@@H](NC(=O)[C@H](Cc1ccccc1)NC(=O)[C@H](CCCCN)NC(=O)CNC(=O)[C@H](C)NC(=O)[C@H](CCCCN)NC(=O)[C@H](Cc1ccccc1)NC(=O)[C@@H](NC(=O)[C@H](Cc1c[nH]cn1)NC(=O)[C@H](CCCCN)NC(=O)[C@H](Cc1ccccc1)NC(=O)[C@@H](NC(=O)[C@H](CO)NC(=O)CNC(=O)[C@H](Cc1c[nH]c2ccccc12)NC(=O)CNC(=O)[C@H](C)N)[C@@H](C)CC)[C@@H](C)CC)[C@@H](C)CC)C(=O)N[C@@H](CCC(N)=O)C(=O)N[C@@H](C)C(=O)N[C@@H](Cc1c[nH]cn1)C(=O)N[C@@H](CC(N)=O)C(=O)N[C@@H](CC(=O)O)C(N)=O |  |  | zebrafish embryos 28 hpf, E3 medium | 1 h |  | acute toxic concentration | 5 µM
CC[C@H](C)[C@H](NC(=O)[C@H](CCCCN)NC(=O)CNC(=O)[C@H](CC(C)C)NC(=O)[C@H](Cc1ccccc1)NC(=O)[C@H](CCCCN)NC(=O)[C@H](CO)NC(=O)[C@H](Cc1ccccc1)NC(=O)[C@H](Cc1c[nH]c2ccccc12)NC(=O)[C@H](CCC(N)=O)NC(=O)[C@@H](NC(=O)[C@H](Cc1ccccc1)NC(=O)CCCCCNC(=O)CN1CCN(CC(=O)O)CCN(CC(=O)O)CCN(CC(=O)O)CC1)C(C)C)C(=O)N[C@@H](CCC(=O)O)C(=O)N1CCC[C@H]1C(=O)N[C@@H](CC(=O)O)C(=O)N[C@H](C(=O)N[C@@H](CO)C(=O)N[C@@H](CCC(N)=O)C(=O)N[C@H](C(=O)N[C@@H](CCC(N)=O)C(=O)N[C@@H](CC(=O)O)C(=O)N1CCC[C@H]1C(=O)N[C@@H](CC(N)=O)C(=O)N[C@@H](CC(=O)O)C(=O)N[C@@H](CCC(N)=O)C(=O)N[C@@H](Cc1ccc(O)cc1)C(=O)N[C@@H](CCC(=O)O)C(=O)N1CCC[C@H]1C(=O)N[C@@H](Cc1ccccc1)C(=O)O)C(C)C)C(C)C [copper-64 labelled] |  | dynamic PET | mouse, CT26 tumour, untreated, tumour | intravenous, 100 µCi/mouse, 1170 s |  | SUVmean | 1.17 SUV
COc1cnc2cccc(N3CCc4c(cc(Cn5ccnc5)cc4-c4cn(C)nc4C(F)(F)F)C3=O)c2c1 |  |  | BALB/c nude mice, MV4-11 xenograft | intraperitoneal, 50 mg/kg, day 21 |  | body weight | 20.8 g and 23.8 g and 23.5 g and 21.4 g and 23.1 g

A few entries again:
Structure (SMILES) | target or system | assay | system | setting | scale | measurement | value
CC(C)C[C@@H](NC(=O)[C@@H](CCCNC(=N)N)NC(=O)[C@@H](Cc1c[nH]cn1)NC(=O)[C@@H](Cc1c[nH]c2ccccc12)NC(=O)[C@@H](Cc1c[nH]cn1)NC(=O)[C@@H](Cc1ccccc1)NC(=O)[C@H](NC(=O)[C@@H](Cc1ccc(O)cc1)NC(=O)CNC(=O)CNC(=O)CCOCCOCCOCCNC(=O)CN1CCN(CC(=O)O)CCN(CC(=O)O)CC1)[C@H](C)O)C(=O)N[C@H](CC(N)=O)C(=O)N1CCC[C@@H]1C(=O)O [gallium-68 labelled] |  |  | C57BL/6 mice, male | intravenous, 1.85 MBq, 120 min | baseline: tumour over blood | tissue ratio | 5.69 ± 1.27
CC(C)[C@@H]1NC(=O)CNC(=O)[C@H](CC(N)=O)NC(=O)[C@H](CCCNC(=N)N)NC(=O)[C@H](Cc2ccc(O)cc2)NC(=O)[C@H](C(C)C)NC(=O)[C@@H](NC(=O)[C@@H](NC(=O)[C@H](CC(N)=O)NC(=O)[C@H](Cc2c[nH]c3ccccc23)NC(=O)[C@H](C)NC(=O)[C@H](Cc2ccccc2)NC(=O)CNC(=O)[C@H](CCCCN)NC(=O)[C@H](Cc2ccccc2)NC(=O)[C@H](Cc2ccccc2)NC(=O)[C@H](CCCCN)NC(=O)OCC2c3ccccc3-c3ccccc32)C(C)C)CSSC[C@@H](C(=O)N[C@@H](Cc2c[nH]cn2)C(=O)N[C@@H](CCCNC(=N)N)C(=O)N[C@@H](CCCNC(=N)N)C(=O)N[C@@H](C)C(=O)N[C@@H](CC(N)=O)C(N)=O)NC(=O)[C@H](C(C)C)NC(=O)[C@H](CCCNC(=N)N)NC1=O |  |  | ICR mice, blood | intraperitoneal, 10 mg/kg, day 5 |  | mean corpuscular volume | 40.7 ± 0.49 fL
